Results of several laboratories.
Several values in a cell are separate wells, animals, samples, runs or records.
Cell line: RPMI-8226

| SMILES | test | system | conditions | how to read | measurement | value |
| --- | --- | --- | --- | --- | --- | --- |
| C#C[C@@]1(O)[C@@H](CO)O[C@@H](n2cc(Cl)c3c(N)ncnc32)[C@@H]1O | SRB |  | NCI-60 screen |  | TGI | 0.521 µM and 0.708 µM |
| O=C(Nc1nnc2n3c(Cc4ccccc4)n[nH]c3nc(-c3ccc(Cl)cc3)c1-2)c1ccccc1 | SRB |  | 10 µM, NCI60 single-dose screen | reference: untreated | cell growth | 93.2% |
| Nc1cccc2c1C(=O)N(C1CCC(=O)NC1=O)C2=O (centres unmarked) | flow cytometry, refers to: CD33 |  | concentration not given | reference: comparator compound alone | surface marker level | 153% |
| O=C1NC(c2ccccc2)(c2ccccc2)C(=O)N1Cc1cn(-c2c3ccccc3nc3ccccc23)nn1 | NCI60 single-dose screen |  | 10 µM |  | growth percentage | 72.4% |
| CCCCN1CCN(c2ccc3[nH]c(-c4ccc5[nH]c(-c6ccc(OCC)c(OCC)c6)nc5c4)nc3c2)CC1 | SRB |  | 10 µM, 48 h |  | growth percent | -25.4% |
| COc1cnc2cccc(N3CCc4c(cc(Cn5ccnc5C)cc4-c4cn(C)nc4C(F)(F)F)C3=O)c2c1 | cell growth, inhibitor |  | 120 h |  | EC50 | 3.51 µM |
| O=C(Nc1nnc2n3c(=S)[nH][nH]c3nc(-c3ccc(Cl)cc3)c1-2)c1ccccc1 | SRB |  | 10 µM, NCI60 single-dose screen | reference: untreated | cell growth | 92% |
| CCn1cc(-c2cc(Cn3ccoc3=N)cc3c2CCN([C@@H](C)c2cc(OC)ccn2)C3=O)c(C(F)(F)F)n1 | cell growth, inhibitor |  | 120 h |  | EC50 | 1.49 µM |
| CSc1nc(-c2ccc(Cl)cc2)c2c(NC(=O)c3ccccc3)nnc-2[nH]1 | SRB |  | 10 µM, NCI60 single-dose screen | reference: untreated | cell growth | 91.8% |
| CCCCN1CCN(c2ccc3[nH]c(-c4ccc5[nH]c(-c6cc(OC)c(OC)c(OC)c6)nc5c4)nc3c2)CC1 | SRB |  | 10 µM, 48 h |  | growth percent | 55.9% |
| O=C1NCCc2[nH]c(-c3ccncc3)cc21 | cytotoxicity, MTS | NCI60 panel | multiple myeloma |  | IC50 | > 10 µM |
| CCCN1CCN(c2ccc3[nH]c(-c4ccc5[nH]c(-c6cc(OC)c(OC)c(OC)c6)nc5c4)nc3c2)CC1 | SRB |  | 10 µM, 48 h |  | growth percent | 95.3% |
| Cc1cc(C)n(-c2nc(-c3ccc(Cl)cc3)c3c(NC(=O)c4ccccc4)nnc-3[nH]2)n1 | SRB |  | 10 µM, NCI60 single-dose screen | reference: untreated | cell growth | 95% |
| O=c1ccn(Cc2cn(-c3c4ccccc4nc4ccccc34)nn2)c(=O)[nH]1 | NCI60 single-dose screen |  | 10 µM |  | growth percentage | 87.3% |
| CC(C)(C)NC(=O)C[C@H](NC(=O)C(=O)c1c[nH]c2ccccc12)C(=O)NCc1cccc(B(O)O)c1 | cell viability, CellTiter-Glo |  | 72 h |  | EC10 | 0.5 µM |
| CCCN1CCN(c2ccc3[nH]c(-c4ccc5[nH]c(-c6ccc(C(F)(F)F)cc6)nc5c4)nc3c2)CC1 | SRB |  | 10 µM, 48 h |  | growth percent | -29.9% |
| Cc1cc(=O)[nH]n1-c1nc(-c2ccc(Cl)cc2)c2c(NC(=O)c3ccccc3)nnc-2[nH]1 | SRB |  | 10 µM, NCI60 single-dose screen | reference: untreated | cell growth | 89.1% |
| CCOc1ccc(-c2nc3cc(-c4nc5cc(N6CCN(C)CC6)ccc5[nH]4)ccc3[nH]2)cc1OCC | SRB |  | 10 µM, 48 h |  | growth percent | 45.8% |
| S=C([S][Au-][P+](CCCCCC[P+]([Au-][S]C(=S)n1cccn1)(c1ccccc1)c1ccccc1)(c1ccccc1)c1ccccc1)n1cccn1 | cell growth, NCI-60 screen |  | leukemia |  | log10 TGI | -6.28 |
| C#C[C@@]1(O)[C@@H](CO)O[C@@H](n2ccc3c(N)ncnc32)[C@@H]1O | SRB |  | NCI-60 screen |  | TGI | > 100 µM |
| Cc1cc(=O)[nH]c(=O)n1Cc1cn(-c2cc3ccccc3oc2=O)nn1 | NCI60 single-dose screen |  | 10 µM |  | growth percentage | 99.9% |
| Cc1cccc(-c2[nH]c(CNc3ccccc3F)nc2-c2ccc3ncnn3c2)n1 | flow cytometry, refers to: CD282 |  | concentration not given | reference: comparator compound alone | surface marker level | 157% |
| CCCN1CCN(c2ccc3[nH]c(-c4ccc5[nH]c(-c6ccc(OCC)c(OCC)c6)nc5c4)nc3c2)CC1 | SRB |  | 10 µM, 48 h |  | growth percent | -18.9% |
| O=c1ccn(Cc2cn(-c3cc4ccccc4oc3=O)nn2)c(=O)[nH]1 | NCI60 single-dose screen |  | 10 µM |  | growth percentage | 103% |
| C#C[C@@]1(O)[C@@H](CO)O[C@@H](n2cc(Br)c3c(N)ncnc32)[C@@H]1O | SRB |  | NCI-60 screen |  | TGI | 0.733 µM and 0.934 µM |
| Cn1cncc1C1=CN(c2ncnc3[nH]cnc23)CCS1 |  |  | leukemia |  | GI50 | 17.8 µM |

Excerpt of the above:
| SMILES | test | system | conditions | how to read | measurement | value |
| --- | --- | --- | --- | --- | --- | --- |
| Cc1cccc(-c2[nH]c(CNc3ccccc3F)nc2-c2ccc3ncnn3c2)n1 | flow cytometry, refers to: CD282 |  | concentration not given | reference: comparator compound alone | surface marker level | 157% |
| CCCN1CCN(c2ccc3[nH]c(-c4ccc5[nH]c(-c6ccc(OCC)c(OCC)c6)nc5c4)nc3c2)CC1 | SRB |  | 10 µM, 48 h |  | growth percent | -18.9% |
